Assay results of several laboratories.
A part holds a random share of what one study measured.

Sample 1
Target: Sal-like protein 4, full length isoform B (SALL4, Homo sapiens, UniProt Q9UJQ4-2, residues 1-616)
Technique: universal PBM
Form: double-stranded DNA, one strand shown
Matrix: in vitro
Tested at: not given
Setting: 8-mer, flanks averaged, mean of replicates
Reading: higher = stronger binding
Strand | E-score
CCTAGAAC | -0.0578
CCCTTGGC | -0.338
CACCCGAC | -0.257
CCTTGCTC | -0.174
GATCGTCC | -0.185
CCAGTAGA | -0.0236
GGGGTAAA | 0.0535
AGCACTAA | 0.0918
TGGGGCAA | -0.143

Sample 2
Target: Centromere-binding protein 1, full length, His-tagged (CBF1, Saccharomyces cerevisiae, UniProt P17106, residues 1-351)
UniProt P17106, sequence (whole entry, looked up): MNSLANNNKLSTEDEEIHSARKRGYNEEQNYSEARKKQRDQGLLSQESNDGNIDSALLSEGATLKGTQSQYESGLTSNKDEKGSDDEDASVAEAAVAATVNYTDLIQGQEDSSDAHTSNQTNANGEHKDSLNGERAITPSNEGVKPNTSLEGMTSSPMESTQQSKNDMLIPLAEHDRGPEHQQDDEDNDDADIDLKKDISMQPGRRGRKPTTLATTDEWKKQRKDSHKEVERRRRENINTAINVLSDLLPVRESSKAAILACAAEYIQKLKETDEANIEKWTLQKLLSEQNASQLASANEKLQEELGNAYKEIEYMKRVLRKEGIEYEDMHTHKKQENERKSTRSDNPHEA
Technique: competition protein-binding microarray
Form: double-stranded DNA, one strand shown
Matrix: in vitro
Tested at: 2 µM
Setting: whole 60-bp probe, lowest competitor level
Together with: Pho4 competitor, 0.05 µM
Reading: higher = stronger binding
Shared flanks, not repeated: … GTCTTGATTCGCTTGACGCTGCTG
Strand | fluorescence intensity [a.u.]
GATATCACCAGCTGGCACGTCAGTGTCTTGACCAAT | 93.6
GGCCAAACAGTTGGGCACATGGCAGGAGATGTAGCC | 89.7
GGATCAACAAAATGGGGCGTGATGGAGAAAAAAAGT | 174
TACACCCAGTCATCCGGCGTGACGGGATCTCCACTT | 69.9
AAAGCGGTAATTTGATGTGTGGGTGCAGATATCTAT | 77

Sample 3
Target: Prothrombin, mature alpha-thrombin (F2, Homo sapiens, UniProt P00734)
Technique: aptamer microarray, sandwich
Form: DNA with 2'F-ANA
Matrix: in vitro
Tested at: 200 nM
Setting: whole 15-mer aptamer, many near background
Together with: Cy3 exosite-II aptamer, 400 nM
Reading: higher = stronger binding
Strand | mean fluorescence intensity [a.u.]
GGTTGGTGTGGTTGG (2'F-ANA at 1 2 3 7 9 10 12 13 14) | 54.6
GGTTGGTGTGGTTGG (2'F-ANA at 1 3 6 7 12 14) | 132
GGTTGGTGTGGTTGG (2'F-ANA at 1 2 4 5 6 7 12 15) | 103
GGTTGGTGTGGTTGG (2'F-ANA at 3 5 8 10 13) | 54.9

Single results of other studies
Molecule | target | assay | test system | setting | how to read | measurement | result
PhoQ, residues 284 288 289 292 302 303 TTCLQL | PhoP, residues 12 14 15 18 19 IQFRS (Escherichia coli, UniProt P23836) | Sort-seq, measured: YFP reporter | E. coli | PhoQ-PhoP variant library, together with: 10 µM Mg2+ | reference: high Mg2+ state, higher = stronger signaling | fold induction | 6.5
